Experimental data gathered from unrelated publications.
Each line is one published result; not all experiments were run side by side. ± marks the error that the study gave.

Compound | assay | system | conditions | scale | endpoint | value
O=C([O-])CN1CCN(CC(=O)[O-])CCN(CC(=O)NCCc2ccc3c(c2)C2C=CCC2C(c2cc4c(cc2Br)OCO4)N3)CCN(CC(=O)[O-])CC1.[111In+3] (stereo not drawn) | – | mice with Hec50 tumour xenograft | 1 h | baseline: tumour over blood | tumour to tissue ratio | 0.71
N=C(N)NCCC[C@@H]1NC(=O)[C@H](CCCCNC(=O)CON=C[C@H](F)[C@@H](O)[C@H](O)[C@H](O)CO)NC(=O)[C@@H](Cc2ccc(O)cc2)NC(=O)[C@H](CC(=O)O)NC(=O)CNC1=O [fluorine-18 labelled] | – | nude mice, U-87 MG xenograft, tumour | intravenous, 0.5 h | – | tumour uptake | 0.63 ± 0.13 %ID/g
CCCC[C@H](NC(=O)CNC(=O)CNC(=O)CN1CCN(CC(=O)O)CCN(CC(=O)O)CC1)C(=O)N[C@H]1CC(=O)NCCCC[C@@H](C(N)=O)NC(=O)[C@H](Cc2c[nH]c3ccccc23)NC(=O)[C@H](CCCNC(=N)N)NC(=O)[C@@H](Cc2ccccc2)NC(=O)[C@H](Cc2c[nH]cn2)NC1=O [gallium-67 labelled] | – | female C57 mice, B16/F1 melanoma | intravenous, 0.037 MBq, 4 h | baseline: tumour over kidney | tumour to tissue ratio | 2.4
CCN(CC)c1ccc2c(-c3ccc(S(=O)(=O)NCCNC(=O)CN4CCN(CC(=O)[O-])CCN(CC(=O)O)CCN(CC(=O)[O-])CC4)cc3S(=O)(=O)[O-])c3ccc(=[N+](CC)CC)cc-3oc2c1.[64Cu+2] | – | athymic nude mice, U-87 MG glioma xenograft | intravenous, 24 h post-injection | – | tumour uptake | 5.14 ± 1.5 %ID/g
N=C(N)NCCC[C@H](NC(=O)[C@@H]1CSSC[C@H](NC(=O)[C@H](Cc2ccc3ccccc3c2)NC(=O)[C@H](CCCNC(=N)N)NC(=O)[C@H](CCCNC(=N)N)NC(=O)CN2CCN(CC(=O)O)CCN(CC(=O)O)CCN(CC(=O)O)CC2)C(=O)N[C@@H](Cc2ccc(O)cc2)C(=O)N[C@@H](CCCNC(N)=O)C(=O)N[C@@H](CCCCN)C(=O)N[C@H](CCCCN)C(=O)N2CCC[C@H]2C(=O)N[C@@H](Cc2ccc(O)cc2)C(=O)N[C@@H](CCCNC(=N)N)C(=O)N[C@@H](CCCNC(N)=O)C(=O)N1)C(N)=O [copper-64 labelled] | PET | mice with CHO-CXCR4 tumours, CHO-CXCR4 tumour | 100 µCi, 1 h | – | tumour uptake | 4.09 ± 1.37 %ID/g
CC(C)(C)ONc1nc(Nc2ccnc(C(F)(F)F)c2)nc(-c2cccc(C(F)(F)F)n2)n1 | – | female Balb/cA nude mice xenograft | oral, 18.05 mg/kg, half-life | baseline: tumour over plasma | tumour to plasma ratio | 2.7 fold
CCC1=C(C)c2cc3[nH]c(cc4nc(c5c6[nH]c(cc1n2)c(C)c6C(=O)C5)[C@@H](CCC(=O)OC)[C@@H]4C)c(C)c3C(C)OCc1cccc([124I])c1 (stereo partly drawn) | – | BALB/c mice with Colon 26 tumours, tumour | 24 h | – | tumour uptake | 4.61 %ID/g
N=C(N)NCCC[C@H](NC(=O)[C@@H]1CSSC[C@H](NC(=O)[C@H](Cc2ccc3ccccc3c2)NC(=O)[C@H](CCCNC(=N)N)NC(=O)[C@H](CCCNC(=N)N)NC(=S)Nc2ccc(C[C@H]3CN(CC(=O)O)CCN(CC(=O)O)CCN3CC(=O)O)cc2)C(=O)N[C@@H](Cc2ccc(O)cc2)C(=O)N[C@@H](CCCNC(N)=O)C(=O)N[C@@H](CCCCN)C(=O)N[C@H](CCCCN)C(=O)N2CCC[C@H]2C(=O)N[C@@H](Cc2ccc(O)cc2)C(=O)N[C@@H](CCCNC(=N)N)C(=O)N[C@@H](CCCNC(N)=O)C(=O)N1)C(N)=O [copper-64 labelled] | PET | mice with CHO-CXCR4 tumours, CHO-CXCR4 tumour | 100 µCi, 4 h | – | tumour uptake | 4.38 ± 0.68 %ID/g
C[C@]12CC[C@@H]3c4ccc(OCC(=O)N[C@@H](CCCCNC(=O)CN5CCN(CC(=O)[O-])CCN(CC(=O)[O-])CCN(CC(=O)[O-])CC5)C(=O)O)cc4CC[C@H]3[C@@H]1CCC2=O.[177Lu+3] | – | female nude mice, MCF7 xenograft | 4 h post injection | – | tumour uptake | 2.55 ± 0.63 % IA/g

Some of these lines once more:
Compound | assay | system | conditions | scale | endpoint | value
CC(C)(C)ONc1nc(Nc2ccnc(C(F)(F)F)c2)nc(-c2cccc(C(F)(F)F)n2)n1 | – | female Balb/cA nude mice xenograft | oral, 18.05 mg/kg, half-life | baseline: tumour over plasma | tumour to plasma ratio | 2.7 fold
